# Published values of several laboratories.
# Every numbered part comes from another study and shows a few of its results, in no order. Substitutions count along the parent as printed.

# Study 1 — target: CREM, bZIP domain (human); method: DHFR protein complementation; matrix: yeast; relative to: wild-type JUN-FOS pair; direction: higher = stronger binding
# Notes: single substitutions, most at no-binding floor
# Starting sequence: JUN, bZIP domain (human); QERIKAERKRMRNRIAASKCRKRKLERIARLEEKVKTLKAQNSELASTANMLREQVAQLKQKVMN; partner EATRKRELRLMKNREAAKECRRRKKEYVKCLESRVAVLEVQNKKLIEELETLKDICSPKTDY
Variant,binding fitness
R30G,-1.47 natural log
A49P,-1.56 natural log
N42A,-1.44 natural log
A57P,-1.56 natural log
Q55H,-1.47 natural log
A46G,-1.48 natural log
M51Q,-1.48 natural log
L52T,-1.5 natural log

# Study 2 — method: universal PBM; molecule type: double-stranded DNA, one strand shown; matrix: in vitro; concentration: 600 nM; direction: higher = stronger binding
# Target: Sal-like protein 4, full length isoform A (SALL4, Homo sapiens, UniProt Q9UJQ4, residues 1-1053)
# Sequence of UniProt Q9UJQ4 (whole entry, looked up): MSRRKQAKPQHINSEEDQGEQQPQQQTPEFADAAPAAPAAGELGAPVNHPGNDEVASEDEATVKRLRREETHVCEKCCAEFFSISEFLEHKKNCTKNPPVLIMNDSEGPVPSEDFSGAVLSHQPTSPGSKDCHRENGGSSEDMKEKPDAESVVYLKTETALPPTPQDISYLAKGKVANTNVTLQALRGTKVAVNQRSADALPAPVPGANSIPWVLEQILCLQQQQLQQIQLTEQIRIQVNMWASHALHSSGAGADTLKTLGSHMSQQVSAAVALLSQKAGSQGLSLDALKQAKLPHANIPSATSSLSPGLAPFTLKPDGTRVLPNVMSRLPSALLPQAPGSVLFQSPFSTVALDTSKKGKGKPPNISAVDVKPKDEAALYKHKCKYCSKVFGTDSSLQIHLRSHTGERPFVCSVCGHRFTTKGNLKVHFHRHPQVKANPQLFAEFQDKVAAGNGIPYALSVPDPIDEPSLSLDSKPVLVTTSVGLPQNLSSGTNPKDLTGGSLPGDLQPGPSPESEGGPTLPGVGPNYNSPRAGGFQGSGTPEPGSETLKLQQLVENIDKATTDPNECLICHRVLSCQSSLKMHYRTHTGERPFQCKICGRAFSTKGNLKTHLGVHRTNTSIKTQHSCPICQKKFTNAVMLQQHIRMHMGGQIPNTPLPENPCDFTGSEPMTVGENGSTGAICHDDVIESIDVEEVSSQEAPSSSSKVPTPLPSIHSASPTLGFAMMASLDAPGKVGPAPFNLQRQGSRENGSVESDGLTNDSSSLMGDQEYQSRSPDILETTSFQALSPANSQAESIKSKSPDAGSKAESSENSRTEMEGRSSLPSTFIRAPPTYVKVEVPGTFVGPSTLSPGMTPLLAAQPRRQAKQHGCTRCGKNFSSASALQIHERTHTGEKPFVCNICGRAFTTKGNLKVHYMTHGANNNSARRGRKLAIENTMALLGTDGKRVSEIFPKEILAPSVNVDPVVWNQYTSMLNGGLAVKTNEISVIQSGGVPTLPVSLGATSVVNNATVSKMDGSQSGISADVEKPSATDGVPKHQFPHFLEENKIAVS
# Notes: 8-mer, flanks averaged, mean of replicates
Sequence,E-score
ACGAAGAG,0.101
CCTTTAAA,0.0842
ACCGACGT,-0.124
ACCTTGCT,-0.111
CAAGCCTA,-0.0209
ACGACCAA,-0.0225
GTGATTAA,0.233
TGGCGCCA,-0.36

# Single results of other studies
# P1: PafA, mature enzyme, eGFP fusion (Elizabethkingia meningoseptica, UniProt Q9KJX5); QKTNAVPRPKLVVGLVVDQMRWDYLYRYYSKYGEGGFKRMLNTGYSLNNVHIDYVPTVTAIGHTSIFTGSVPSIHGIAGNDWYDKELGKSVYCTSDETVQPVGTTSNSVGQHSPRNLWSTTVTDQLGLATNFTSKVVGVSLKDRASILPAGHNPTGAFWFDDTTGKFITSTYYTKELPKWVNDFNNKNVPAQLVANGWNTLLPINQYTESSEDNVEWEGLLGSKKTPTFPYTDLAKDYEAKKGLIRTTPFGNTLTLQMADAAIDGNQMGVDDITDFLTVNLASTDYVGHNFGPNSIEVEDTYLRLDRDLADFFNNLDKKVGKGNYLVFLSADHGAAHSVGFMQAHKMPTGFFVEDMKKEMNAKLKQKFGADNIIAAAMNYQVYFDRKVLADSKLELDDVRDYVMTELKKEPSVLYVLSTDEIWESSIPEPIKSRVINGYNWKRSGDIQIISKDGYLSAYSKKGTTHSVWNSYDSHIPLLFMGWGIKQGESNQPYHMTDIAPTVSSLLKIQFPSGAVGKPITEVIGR
Molecule,target or system,test,system,setting,how to read,endpoint,value
"ERLIN1 (Homo sapiens, UniProt O75477)","ERLIN2 (Homo sapiens, UniProt O94905)",cross-linking MS,cells,added: BSPNO,,cross-linked residues,K228 to K241
P1 T130V,"tungstate, free oxyanion",microfluidic competitive inhibition,"in vitro, cell-free expressed","not given, derived from inhibition constants, unchanged parent 2230 nM",lower = stronger binding,oxyanion analog dissociation constant,2.13 µM

# A few entries again (study 1):
Variant,binding fitness
M51Q,-1.48 natural log
L52T,-1.5 natural log
